# Measured values pooled from the literature.
# Protocols differ between the studies behind these lines.
# Route: oral
SMILES,test system,conditions,endpoint,value
CS(=O)(=O)n1cc2c(n1)CN([C@H]1CO[C@H](c3cc(F)ccc3F)[C@@H](N)C1)C2,"male human, plasma","50 mg, single dose, fasted",AUC(0-inf),50.5 µM·h
O=C(c1nc2n(n1)[C@H](c1ccccc1)C[C@@H]2F)C1CC1,"human, plasma","150 mg, single dose, fasted, healthy volunteers",AUC(0-t),18000 ng·h/mL
COc1cccc(-c2ccc(NC(=O)C3=C(C(=O)O)CCC3)c(F)c2)c1,"male human, plasma","10 mg, single dose, fed, healthy volunteers",AUC(0-inf),53900 ng·h/mL
Nc1ccc(-c2nc([C@H]3CCc4cc(-c5cc(Cl)ccc5-n5cnnn5)cc(=O)n43)c(F)[nH]2)c(F)n1,"human, plasma","1 mg, single dose, fasted",AUC,89 ng·h/mL
CCn1c(C(=O)c2cc(C)cc(C#N)c2)c(C(C)C)c(=O)[nH]c1=O,"human, plasma","150 mg, multiple doses, once daily, steady state, healthy volunteers",AUC,8250 ng·h/mL
O=C(NCCN1CCCC1)c1cc(-c2ccc(CN3CCOCC3)cc2)nc2ccc(F)cc12,"human, blood","400 mg, single dose, whole blood",AUC(0-t),5830 ng·h/mL
CCCCCN1C[C@H](O)[C@@H](O)[C@H](O)[C@@H]1CO,"human, plasma","30 mg, single dose, fasted, healthy volunteers",AUC(0-t),1070 ng·h/mL
C[C@@H]1CCC[C@H](n2cnc(-c3cc(Cl)ccc3-n3cc(Cl)nn3)cc2=O)c2cc(ccn2)-c2c(cnn2C(F)F)NC1=O,"human, plasma","300 mg, single dose, fasted, healthy volunteers",AUC(0-inf),15000 ng·h/mL
CS(=O)(=O)n1cc2c(n1)CN([C@H]1CO[C@H](c3cc(F)ccc3F)[C@@H](N)C1)C2,"male human, plasma","100 mg, single dose, fasted, healthy volunteers",AUC(0-t),82.5 µM·h
CCOc1ccc(Cc2cc([C@@H]3S[C@H](CO)[C@@H](O)[C@H](O)[C@H]3O)c(OC)cc2C)cc1,"human, plasma","1 mg, single dose, fasted, healthy volunteers",AUC(0-t),323 ng·h/mL

# A few entries again:
SMILES,test system,conditions,endpoint,value
CS(=O)(=O)n1cc2c(n1)CN([C@H]1CO[C@H](c3cc(F)ccc3F)[C@@H](N)C1)C2,"male human, plasma","50 mg, single dose, fasted",AUC(0-inf),50.5 µM·h
